Measured values gathered from unrelated publications.
A part holds a random share of what one study measured. Changes are numbered by the printed parent chain.

Set 1
Target: Histone acetyltransferase KAT6A, both winged helices, GST fusion (KAT6A, Homo sapiens, UniProt Q92794, residues 1-181)
Technique: protein binding microarray
Molecule type: double-stranded DNA, one strand shown
Sample: in vitro
Tested at: not given
Setting: 8-mer, flanks averaged, mean of 2 arrays, mostly near background
Baseline: not given
Reading: higher = stronger binding
Target sequence (chain): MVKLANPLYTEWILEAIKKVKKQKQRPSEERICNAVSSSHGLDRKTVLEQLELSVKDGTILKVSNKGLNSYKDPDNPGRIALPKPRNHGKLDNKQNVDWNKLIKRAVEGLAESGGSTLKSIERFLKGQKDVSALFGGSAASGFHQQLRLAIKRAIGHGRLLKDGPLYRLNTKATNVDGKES
| Oligonucleotide | E-score |
| --- | --- |
| ACCAACAG | -0.0388 |
| ACTCGCAG | -0.0299 |
| GGCCGGGA | 0.236 |
| CGGCGTGA | 0.302 |
| AGACTCTA | -0.0724 |
| CATTCAGA | -0.0728 |
| TCCCACAA | -0.138 |
| AAGAGTTC | -0.174 |
| GGATTGTA | -0.054 |
| ATTCGACA | -0.124 |
| TCAAGAGA | -0.154 |
| CACACACA | -0.241 |
| ACGCCACT | -0.0144 |
| AGCTTCTA | -0.0861 |
| AGCACCGA | -0.0264 |
| ACGTCATG | 0.0683 |
| AACGTGGA | -0.0178 |
| TATGCAAA | -0.151 |
| CTGAACGC | 0.145 |
| ACTTCCCC | -0.171 |
| ATCGACAA | -0.124 |
| GCTGATCC | -0.00354 |
| CTGATTAC | 0.0375 |
| CGGGGTGC | 0.184 |
| AGCTGCAT | -0.0703 |

Set 2
Target: ABI1, truncated, D143A, DHFR fusion (Arabidopsis thaliana)
Technique: DHFR PCA, deep sequencing
Sample: yeast
Setting: methotrexate growth selection, single substitutions
With: (+)-ABA 58 µM
Baseline: wild-type fitted maximum
Reading: higher = stronger binding
Starting sequence: PYL1, truncated, DHFR fusion (Arabidopsis thaliana); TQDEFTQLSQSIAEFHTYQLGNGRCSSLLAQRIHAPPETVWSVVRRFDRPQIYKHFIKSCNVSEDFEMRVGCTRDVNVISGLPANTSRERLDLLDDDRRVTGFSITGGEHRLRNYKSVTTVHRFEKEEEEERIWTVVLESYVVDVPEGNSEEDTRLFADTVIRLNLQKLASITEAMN; partner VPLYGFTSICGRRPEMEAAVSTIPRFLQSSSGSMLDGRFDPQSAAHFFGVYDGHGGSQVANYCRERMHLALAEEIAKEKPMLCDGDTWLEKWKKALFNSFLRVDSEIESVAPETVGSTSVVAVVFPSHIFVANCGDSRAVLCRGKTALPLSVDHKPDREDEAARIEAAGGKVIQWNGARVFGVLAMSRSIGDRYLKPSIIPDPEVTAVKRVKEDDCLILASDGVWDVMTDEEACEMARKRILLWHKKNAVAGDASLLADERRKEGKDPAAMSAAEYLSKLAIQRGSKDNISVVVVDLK
| Change | relative binding score |
| --- | --- |
| T39G | 57.4% |
| E174M | 66.3% |
| I57V | 83.5% |
| A30E | 79% |
| G108C | 14.3% |
| L82M | 72.6% |
| A35D | 9.5% |
| L29T | 56.2% |
| V121D | 5.08% |
| T1Y | 84.9% |
| E89T | -2.69% |
| V70T | 71.2% |
| L166T | -0.872% |
| E64I | 74.3% |

Set 3
Target: Interferon regulatory factor 5, full length, phosphomimetic (IRF5, Homo sapiens, UniProt Q13568-2, residues 1-514, S451D/S453D/S456D/S462D)
Technique: protein-binding microarray
Molecule type: double-stranded DNA, one strand shown
Sample: in vitro
Tested at: 940 nM top
Setting: 60-bp whole probe
With: salmon DNA 0.4 mg/ml
Baseline: random background probes
Reading: higher = stronger binding
All sequences stand within: GCCTAGCAC … GTCTTGATTCGCTTGACGCTGCTG
| Oligonucleotide | fitted relative affinity [z-score] |
| --- | --- |
| TTAGAACTGGGGCTTCGATTAGTGCTA | -0.0746 |
| GACGGTTTCGACACTGGCGACGTGCTA | 7.05 |
| GACGGTTTCCTACTGCTAACGTGCTAG | 0.704 |
| TCAGATTTCAGTTTCTCACTGTGCTAG | 1.44 |
| TTAGATTTCAGCCTGGATTAGTGCTAG | -0.12 |
| TACGGACTGCTTATCCTGACGTGCTAG | -0.126 |
| ATGAGCTTCAAACCATAACCGTGCTAG | -0.0147 |
| GACGACCTGGGGTATCGAGACGTGCTA | 0.807 |
| TTTTTTTTGGAATGTCTTCCCGTGCTA | 0.594 |
| TTAGCTATCGGTTTCGGTTAGTGCTAG | 8.26 |
| GACGATCTTAGTTTCGAGACGTGCTAG | 4.76 |
| TTAAGACTGGGGTATCGGTTAGTGCTA | 3.22 |
| GACGATATCGGGTTACGAGACGTGCTA | 0.175 |
| GACGGTTTCGGACCGGGGACGTGCTAG | 5.71 |
| GACGGTTTCAGGTATCGGGACGTGCTA | 4.88 |
| CCAGTTGAGCACAGGAAAGTGTGCTAG | -0.462 |

Set 4
Target: Sal-like protein 4, full length isoform B (SALL4, Homo sapiens, UniProt Q9UJQ4-2, residues 1-616)
Technique: universal PBM
Molecule type: double-stranded DNA, one strand shown
Sample: in vitro
Tested at: not given
Setting: 8-mer, flanks averaged, mean of replicates
Reading: higher = stronger binding
Target sequence (chain): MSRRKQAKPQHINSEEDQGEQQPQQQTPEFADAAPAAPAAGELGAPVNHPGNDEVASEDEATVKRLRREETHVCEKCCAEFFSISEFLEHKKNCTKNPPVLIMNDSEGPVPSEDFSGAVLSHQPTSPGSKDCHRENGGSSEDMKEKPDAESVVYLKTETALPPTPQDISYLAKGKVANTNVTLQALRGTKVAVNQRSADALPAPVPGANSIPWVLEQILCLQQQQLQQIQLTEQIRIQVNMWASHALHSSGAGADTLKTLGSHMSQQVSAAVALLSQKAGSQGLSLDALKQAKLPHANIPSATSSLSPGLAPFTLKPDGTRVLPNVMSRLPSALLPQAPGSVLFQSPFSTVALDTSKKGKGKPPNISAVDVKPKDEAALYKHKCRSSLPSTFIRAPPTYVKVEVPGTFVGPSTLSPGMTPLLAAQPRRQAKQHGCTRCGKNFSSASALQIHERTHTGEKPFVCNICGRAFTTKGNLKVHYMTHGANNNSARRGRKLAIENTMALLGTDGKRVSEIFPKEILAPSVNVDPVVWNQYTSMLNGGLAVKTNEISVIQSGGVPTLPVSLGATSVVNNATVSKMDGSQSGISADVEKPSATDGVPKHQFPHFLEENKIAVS
| Oligonucleotide | E-score |
| --- | --- |
| TCCACCCA | -0.0974 |
| AGGCAGGG | -0.119 |
| ACGGCGGC | -0.347 |
| TACTCTAA | 0.134 |
| CACCTTCA | -0.0473 |
| ATGCGGAA | -0.0137 |
| TATGGACA | 0.22 |
| ACAGTTCT | 0.0693 |
| ATTACCGA | 0.0895 |
| ACTCAGCG | -0.113 |
| CCTGACGC | -0.291 |
| GGGAGCTA | -0.26 |
| GCCCAGTA | -0.17 |
| ACATCACA | 0.143 |
| ACGCTAGC | -0.173 |
| CGCTCGAA | -0.1 |
| AATCCAGA | 0.236 |
| GGATGACA | 0.0272 |
| CGAGTCAA | -0.0953 |
| CATAGAGA | 0.152 |
| CAGCCAGC | -0.282 |
| AGTAGCCC | -0.159 |
| GTATTTTA | 0.317 |
| GGATACCA | -0.0868 |

Set 5
Target: CCNE2, cyclin fold, Cln2 fusion (human)
Technique: yeast growth competition, sequencing
Sample: yeast
Setting: weak parent motif
Baseline: not given
Reading: higher = stronger binding
Starting sequence: ORC1 docking peptide (human); PRARKRLELGNLG; partner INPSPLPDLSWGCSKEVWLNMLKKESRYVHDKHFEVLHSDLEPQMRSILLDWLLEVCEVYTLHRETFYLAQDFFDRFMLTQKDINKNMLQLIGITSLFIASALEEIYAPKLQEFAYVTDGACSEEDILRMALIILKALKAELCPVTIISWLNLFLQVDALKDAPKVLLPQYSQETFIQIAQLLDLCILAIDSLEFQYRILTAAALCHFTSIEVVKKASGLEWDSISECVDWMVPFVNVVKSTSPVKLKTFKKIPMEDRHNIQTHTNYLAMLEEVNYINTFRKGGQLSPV
| Change | normalised enrichment score |
| --- | --- |
| G10Q | 0.532 |
| E8L | 0.912 |
| L9Y | 0.427 |
| A3I | -0.798 |
| N11W | 0.756 |
| L12S | 0.73 |
| R4P | 0.376 |
| K5W | 1.1 |
| P1W | 0.435 |
| A3W | 1.02 |
| G10D | 1.12 |
| L12W | 1.13 |
| R2F | 0.17 |
| A3S | 0.775 |
| L9C | 0.833 |
| P1K | 1.54 |
| G10E | 0.524 |
| L7P | -0.526 |
| L12F | 1.39 |
| L7G | -0.0522 |
| N11D | 0.649 |
| P1D | 1.62 |
| R4G | 0.0645 |
| L9S | 0.899 |
| K5R | 1.12 |

Set 6
Target: CREBZF, bZIP domain (human)
Technique: DHFR protein complementation
Sample: yeast
Setting: single substitutions, most at no-binding floor
Baseline: wild-type JUN-FOS pair
Reading: higher = stronger binding
Starting sequence: JUN, bZIP domain (human); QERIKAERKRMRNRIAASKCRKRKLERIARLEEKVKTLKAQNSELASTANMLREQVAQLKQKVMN; partner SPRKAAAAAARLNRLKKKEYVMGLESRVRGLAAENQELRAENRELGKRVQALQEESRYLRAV
| Change | binding fitness |
| --- | --- |
| L38R | -1.5 natural log |
| V56H | -1.53 natural log |
| R30T | -1.5 natural log |
| S43V | -1.5 natural log |
| E54D | -1.42 natural log |
| S47A | -1.5 natural log |
| E44F | -1.47 natural log |
| K39H | -1.49 natural log |
| E54V | -1.46 natural log |
| K36S | -1.6 natural log |
| L59W | -1.07 natural log |
| L52N | -1.52 natural log |
| N42Y | -1.48 natural log |
| E33V | -1.37 natural log |
| A46L | -1.4 natural log |
| L45K | -1.43 natural log |
| I28E | -1.52 natural log |
| A40G | -1.46 natural log |
| I28P | -1.5 natural log |
| V35S | -1.53 natural log |

Other studies, line by line
| Molecule | target | test | test system | setting | how to read | quantity | value |
| --- | --- | --- | --- | --- | --- | --- | --- |
| PhoQ, residues 284 288 289 292 302 303 HSYLQF | PhoP, residues 12 14 15 18 19 NFCKL (Escherichia coli, UniProt P23836) | Sort-seq, measured: YFP reporter | E. coli | PhoQ-PhoP variant library, with: 10 µM Mg2+ | baseline: high Mg2+ state, higher = stronger signaling | fold induction | 0.871 |

Some of these lines once more (set 6):
| Change | binding fitness |
| --- | --- |
| L52N | -1.52 natural log |
| N42Y | -1.48 natural log |
| E33V | -1.37 natural log |
| A46L | -1.4 natural log |
| L45K | -1.43 natural log |
| I28E | -1.52 natural log |
| A40G | -1.46 natural log |
